Assay results gathered from unrelated publications.
A part holds a random share of what one study measured.

Series 1
Target: Ras GTPase-activating protein-binding protein 1, RRM domain (G3BP1, Homo sapiens, UniProt Q13283)
Chain of UniProt Q13283 (whole entry, looked up): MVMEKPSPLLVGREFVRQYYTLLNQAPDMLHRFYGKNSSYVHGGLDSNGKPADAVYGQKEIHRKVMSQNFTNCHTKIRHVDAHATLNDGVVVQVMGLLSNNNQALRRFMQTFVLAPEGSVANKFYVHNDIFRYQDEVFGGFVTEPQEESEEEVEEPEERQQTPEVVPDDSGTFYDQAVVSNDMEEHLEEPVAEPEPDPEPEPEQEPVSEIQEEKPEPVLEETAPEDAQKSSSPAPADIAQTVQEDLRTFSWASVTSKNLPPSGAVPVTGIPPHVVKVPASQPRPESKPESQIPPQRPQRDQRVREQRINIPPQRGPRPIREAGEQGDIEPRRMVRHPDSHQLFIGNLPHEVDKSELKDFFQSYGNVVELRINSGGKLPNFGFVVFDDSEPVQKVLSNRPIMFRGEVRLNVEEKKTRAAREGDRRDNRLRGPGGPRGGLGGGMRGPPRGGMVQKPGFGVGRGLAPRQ
Method: RNA Bind-n-Seq
Form: RNA
Medium: in vitro
Tested at: 1 µM
Setting: whole 134-nt RNA, ends assumed
Together with: 150 mM KCl
Baseline: input library
Direction: higher = stronger binding
Measurement: log2 enrichment
Constant ends, left off below: GGGAGUUCUACAGUCCGACGAUC … UGGAAUUCUCGGGUGUCAAGG
UAACUUUGGAGGAGGAUCUGAUGGAUAUGGCAGUGGACGUGGAUUUGGGGAUGGCUAUAAUGGGUAUGGAGGAGGACCUGGAGGUGGCAA: -0.811
CUCAAGUCCUGUGCUACACAUCGUAUGUACCGAAUCGGAAAAAAAGGUGGUGGAAAGUAUUAUGUUACGCCGUUCGGAUCUGCACUUCCA: -0.221
CCUCAAGUCCUGUGCUACACAUCGUAUGUACCGAAUCGGGAGGGGAGGGGAGGAAAGUAUUAUGUUACGCCGUUCGGAUCUGCACUUCCA: -0.137
CACAGACAACACGCACCCACACAGACACAGAGGGAAAAAGUUGGGAUGGGGACAGGGUGCACAGCAGGGCGGGGUAGGACCCCAGCCCCU: -0.204
UUGCAUUUCGAACGCGUUCUAAGAUGCCCCUGAAAGAUGUUCCCCUGGGCCAAUUAGAGGCAGAGCUCCAAGCUCCAGACAUCACUCCAG: 0.0649
CCUCAAGUCCUGUGCUACACAUCGUAUGUACCGAAUCGGGCGGCGGGGCGGGAAAGUAUUAUGUUACGCCGUUCGGAUCUGCACUUCCAG: 0.159
UGGCCCUGGUGGCAUGCGGGGAGGAAGAGGUGGCCUCAUGGAUCGUGGUGGUCCCGGUGGAAUGGUCAGAGGUGGCCGUGGUGGAGACAG: 1.96
CACAGACAACACGCACCCACACAGACAAAAAGGGAAGGGGUUGGGAUGGGGACAGGGUGCACAGCAGGGCGGGGUAGGACCCCAGCCCCU: -0.16

Series 2
Cell line: HEK-293T/ACE2
Tested at: concentration not given
Time: 16 (unit not given)
Baseline: vehicle
Measurement: viability
NCCCC(N)(C(=O)O)C(F)F (centres unmarked): 106%
CC1=C(/C=C/C(C)=C/C=C/C(C)=C/C=C/C=C(C)/C=C/C=C(C)/C=C/C2=C(C)CCCC2(C)C)C(C)(C)CCC1: 102%
c1ccc(CN(CC2=NCCN2)c2ccccc2)cc1: 102%

Series 3
Target: Replicase polyprotein 1ab, main protease (rep, Severe acute respiratory syndrome coronavirus 2, UniProt P0DTD1)
Observed: enzyme activity
Action: inhibitor
Tested at: 20 µM
Setting: hit confirmation
Measurement: inhibition
c1cc2c(cc1C1CCCCC1)c1c3n2CCNC3CCC1 (centres unmarked): 10.5%
CCO[C@@H](Cc1ccc(OCCn2c(C)ccc2-c2ccc(SC)cc2)cc1)C(=O)O: -8.9%
C=C1C(=O)O[C@H]2[C@H]1CC/C(C)=C/CC[C@@]1(C)O[C@@H]21: 86.2%
Cc1ccc([N+](=O)[O-])cc1S(=O)(=O)N(C)C: -20.4%

Series 4
Target: Centromere-binding protein 1, full length, His-tagged (CBF1, Saccharomyces cerevisiae, UniProt P17106, residues 1-351)
Chain of UniProt P17106 (whole entry, looked up): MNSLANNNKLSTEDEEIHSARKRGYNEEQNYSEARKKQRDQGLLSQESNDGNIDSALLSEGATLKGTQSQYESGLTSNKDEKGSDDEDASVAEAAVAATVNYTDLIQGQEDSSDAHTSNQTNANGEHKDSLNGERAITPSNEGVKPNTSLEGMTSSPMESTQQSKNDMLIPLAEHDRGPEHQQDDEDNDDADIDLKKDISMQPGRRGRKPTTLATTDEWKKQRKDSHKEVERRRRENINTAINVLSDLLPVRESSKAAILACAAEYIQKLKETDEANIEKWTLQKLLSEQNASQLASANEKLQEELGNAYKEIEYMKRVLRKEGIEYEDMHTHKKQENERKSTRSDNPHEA
Method: competition protein-binding microarray
Form: double-stranded DNA, one strand shown
Medium: in vitro
Tested at: 2 µM
Setting: whole 60-bp probe, lowest competitor level
Together with: Pho4 competitor, 0.05 µM
Direction: higher = stronger binding
Measurement: fluorescence intensity
Constant ends, left off below: … GTCTTGATTCGCTTGACGCTGCTG
CTGTTCTCTGTAATGCATGTGGCCTCTTCCTGAAGT: 102 a.u.
TTGCATAGGCAGCATATCGCCCCCAGTAATCATTGG: 72.3 a.u.
AGAGGGCGGCACCATCACGATCCCTCTGCCTTTGAA: 76.8 a.u.
CTAACGAAGGTTTGTCACTATACTTACAAGCCAAGT: 70.2 a.u.
CTTTCCCGATCTTGGGCCGTGGGTGTAGCACATTTG: 70.8 a.u.
AAAACTTACTTCCGTCACATGCAAGATGTAGACCCA: 533 a.u.
CGGGGTTAAGTTTGTTGTGTGGGTGGCTTGCAGCAG: 72.1 a.u.
TCTTGCTGATTCTGCATCGTGGTGAACAGACGGTTT: 76.6 a.u.

Series 5
Target: Replicase polyprotein 1ab, nsp13 helicase (rep, Severe acute respiratory syndrome coronavirus 2, UniProt P0DTD1)
Action: inhibitor
Tested at: 20 µM
Measurement: inhibition
COc1cccc(N2CCN(C3=Nc4c(F)cccc4[C@H](CC(=O)O)N3c3cc(C(F)(F)F)ccc3OC)CC2)c1: 5.08%
O=C(NCC(=O)N1CC[C@H](N[C@H]2CC[C@@](O)(c3ccc(-c4ncccn4)cn3)CC2)C1)c1cccc(C(F)(F)F)c1: -0.75%
C[C@@H](NCCCc1cccc(C(F)(F)F)c1)c1cccc2ccccc12: 4.88%
O=C(O)Cn1c(C(=O)Nc2nc(-c3ccccc3Cl)cs2)cc2ccccc21: 5.2%
CCCc1cc(C(N)=S)ccn1: 3.16%
CCOc1cncc(/C=C/CCNC)c1: 2.41%
Cc1nc(C)c(Cl)c(O)c1Cl: 0.63%
CCN(CC)CCn1c(=O)c(Cc2ccc(OC)cc2)nc2ccccc21: 0.67%
O=C(O)CNC(=O)C1C(=O)N(C2CCCCC2)C(=O)N(C2CCCCC2)C1=O: 2.83%
CC(Oc1ccc(O)cc1)(P(=O)(O)O)P(=O)(O)O: 0.02%
CC(N)[C@]12C[C@H]3C[C@H](C[C@H](C3)C1)C2 (some centres unmarked): 5.05%
CN(C)c1nc(N)c(C(=O)Nc2cccnc2)nc1Cl: -4.47%
O=C1CCC[C@@H]2[C@H]3CCC[N+]4([O-])CCC[C@@H](CN12)[C@@H]34 (some centres unmarked): 7.97%
CC(CNC(=O)c1cccnc1)NC(=O)c1cccnc1 (centres unmarked): 8.57%
NS(=O)(=O)c1cc(C2(O)NC(=O)c3ccccc32)ccc1Cl (centres unmarked): -6.69%
O=C(Nc1ccc(C(O)(C(F)(F)F)C(F)(F)F)cc1)c1ccc(C(F)(F)F)cc1: 3.85%
Nc1nc(=O)[nH]cc1F: -2.21%
O=C1COc2c(CCNCCN(C(=O)CCNCCc3ccc(Cl)c(Cl)c3)C3CCCCC3)ccc(O)c2N1: 25.5%
COc1ccc2cc1Oc1ccc(cc1)C[C@H]1c3c(cc4c(c3Oc3cc5c(cc3OC)CCN(C)[C@@H]5C2)OCO4)CCN1C: 19.3%
C=C1C[C@@]2(O)O[C@@]3(C[C@H]2C(C)C)[C@@H](C)CC[C@@H]13: 5.41%
Clc1ccccc1C(c1ccccc1)(c1ccccc1)n1cccn1: 8.62%
Cc1nc(C#Cc2ccnc(Cl)c2)c(C)n1-c1ccc(F)cc1: -1.57%
Cc1ccc2c(=O)c3ccccc3n(CCCN)c2c1C: 25.5%
N#CC1(c2ccc(NC(=O)c3cccnc3NCc3ccncc3)cc2)CCCC1: 36.7%
c1ccc2c(Oc3nc(Nc4ccc(N5CCOCC5)cc4)c4ncn(C5CCCCC5)c4n3)cccc2c1: 2%

Series 6
Target: Histone acetyltransferase KAT6A, winged helix 1, GST fusion (KAT6A, Homo sapiens, UniProt Q92794, residues 1-85)
Method: protein binding microarray
Form: double-stranded DNA, one strand shown
Medium: in vitro
Tested at: not given
Setting: 8-mer, flanks averaged, mean of 2 arrays, mostly near background
Baseline: not given
Direction: higher = stronger binding
Measurement: E-score
Construct (chain): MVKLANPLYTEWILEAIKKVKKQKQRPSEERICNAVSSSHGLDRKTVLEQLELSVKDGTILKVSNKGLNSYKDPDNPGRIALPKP
AAATCGTG: -0.0562
GTAACCTA: 0.167
CTACAATC: -0.0738
ACGGAAAT: 0.165
CCTACGTC: -0.141
CACGGACA: 0.138
ATCTAACC: 0.0549
AGAAGCTG: -0.134

Excerpt of the above (series 5):
CC(N)[C@]12C[C@H]3C[C@H](C[C@H](C3)C1)C2 (some centres unmarked): 5.05%
C[C@@H](NCCCc1cccc(C(F)(F)F)c1)c1cccc2ccccc12: 4.88%
CCN(CC)CCn1c(=O)c(Cc2ccc(OC)cc2)nc2ccccc21: 0.67%
O=C(O)CNC(=O)C1C(=O)N(C2CCCCC2)C(=O)N(C2CCCCC2)C1=O: 2.83%
